Measured values pooled from the literature.
Parts stem from different laboratories: compare values within a part only.

Sample 1
Target: RING finger protein unkempt homolog, zinc fingers 1-6, GST-SBP tag (UNK, Homo sapiens, UniProt Q9C0B0, residues 30-357)
UniProt Q9C0B0, sequence (30-357, looked up): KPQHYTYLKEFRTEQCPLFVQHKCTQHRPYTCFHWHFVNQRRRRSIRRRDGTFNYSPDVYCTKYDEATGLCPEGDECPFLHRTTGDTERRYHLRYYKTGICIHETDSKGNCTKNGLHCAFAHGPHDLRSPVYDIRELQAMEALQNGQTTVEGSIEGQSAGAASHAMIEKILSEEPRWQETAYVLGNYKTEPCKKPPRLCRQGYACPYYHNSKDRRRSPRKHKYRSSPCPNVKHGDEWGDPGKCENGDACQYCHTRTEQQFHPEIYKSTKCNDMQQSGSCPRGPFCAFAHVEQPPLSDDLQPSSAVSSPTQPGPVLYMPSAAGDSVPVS
Technique: RNA Bind-n-Seq
Molecule type: RNA
Matrix: in vitro
Concentration: not given
Setting: RNA with constant flanks, human and mouse sites, ends assumed
Baseline: input RNA pool
Direction: higher = stronger binding
For `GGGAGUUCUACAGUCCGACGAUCUUGCCCUUGAAGCUGUCAAGUGCUGCCUGUCUCUCUCCUCGCCCUCCAGCUCCAUGCGUUGCUCUGUGCAUGCUUGAGGCCUUCCCCAGCUCGCGUGUGCAGGACAGUCCUUUGGUAAUGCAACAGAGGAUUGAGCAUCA`, the bound/input enrichment was 0.115 ratio.
The bound/input enrichment of `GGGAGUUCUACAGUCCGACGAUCUUUUCUGUUAACAGUAUUUCUUGUGUGCGUGCUUGUUGGGCAGCCCGUUUGGCUGCGUUAUAUAGCGAGUGAUGAGCUGAUCCUUUCCCCUAAGAGACAUGACUUCCCUCCGUCAGCAUUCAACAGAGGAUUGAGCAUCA` is reported as 0.531 ratio.
`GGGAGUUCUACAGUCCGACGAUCGAAGAACACUUGGCAGUAAAGCAUUUUUCUGUUGAAGGACAAUUAGAAUUCCGGGCCCUUCUUUUUGUCCCAAGACGCGCUCCUUUUGAUCUGUUUGAAAACAGAAAGAAAAAGAACAACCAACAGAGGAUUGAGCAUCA` has a bound/input enrichment of 0.127 ratio.
`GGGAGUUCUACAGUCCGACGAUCAGGCCUACCCGCCGCAGUACUGAUCAUUCUAUUUCCCCCUCUAUUGAUCCCCACCUCCAAAUAUCUCAUCAACAACCGACUAAUCACCACCCAACAAUGACUAAUCAAACUAACCUCAAACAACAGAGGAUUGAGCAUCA` gave a bound/input enrichment of 1.01 ratio.
For `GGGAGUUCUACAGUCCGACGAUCCUGCGGGCCACAGGGCAAAAUCGCCAUAGGCCAAGGUGCAUAUAGAAAACAAAGGAGCAUUAAGCCCAAUCUAUGUCGUGUUUUCAAGGAAGAAAACGGAAAUGUGUAGUCAAGCUUUUUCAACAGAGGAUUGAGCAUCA`, the bound/input enrichment was 0.59 ratio.
`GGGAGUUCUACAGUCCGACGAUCCGUAGGCAAGUUUGAGUUUUCUUUCCUUUGAUGCAGAUGCUUGGGUUUCCACUCUGGCUGCAUUGCAGUCGGCUCCCAGCCCUGCCGGCGUGGGCACAGAGGCCAGAGGGGCUCACUUGGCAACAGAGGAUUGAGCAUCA` has a bound/input enrichment of 0.198 ratio.
The bound/input enrichment of `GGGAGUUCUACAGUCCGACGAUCAAGGCUCUGUGUGUGUGUGUGUGUGUGUGUGUGUGUGUGUGUGUGUGUGUGUGUGUUUGUGUUUGUGUAUCUAGGAAGGCUGUGUGUGUUUGUGUAUCUAGGAAGGCUGUGUGUGUUUAUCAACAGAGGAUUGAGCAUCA` is reported as 5.89 ratio.
The bound/input enrichment of `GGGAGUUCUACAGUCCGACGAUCUCCACGUCAGAAGACAAUCGCCCUUUAACUGGACUUGCAGCUGCAAUUGCGGGAGCAAAACUUAGGAAAGUGUCCCGGGUGGAGGAUGGCUCUUUCCCAGGUGGAGGGAAUACUGGGAGUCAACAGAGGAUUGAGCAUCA` is reported as 0.196 ratio.

Sample 2
Target: Fragile X messenger ribonucleoprotein 1, C-terminal low-complexity region (Fmr1, Mus musculus, UniProt P35922)
Technique: RNA Bind-n-Seq
Molecule type: RNA
Matrix: in vitro
Concentration: 200 nM
Setting: whole 134-nt RNA, ends assumed
Together with: 150 mM LiCl
Baseline: input library
Direction: higher = stronger binding
Library: 7-deaza-guanosine replaces G
The log2 enrichment of `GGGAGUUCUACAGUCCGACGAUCUCAAGUCCUGUGCUACACAUCGUAUGUACCGAAUCGGUUUGGGUUUGGUUUGGGAAAGUAUUAUGUUACGCCGUUCGGAUCUGCACUUCCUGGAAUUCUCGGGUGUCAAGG` is reported as -1.47.
With `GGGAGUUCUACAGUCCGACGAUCGUCCUGUGCUACACAUCGUAUGUACCGAAUCGGGGAAAGGGGUUUUUUUGGGGUGGGGAAAGUAUUAUGUUACGCCGUUCGGAUCUGCACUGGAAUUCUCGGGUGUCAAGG` the log2 enrichment was -0.52.
`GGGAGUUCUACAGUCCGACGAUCAGUCCUGUGCUACACAUCGUAUGUACCGAAUCGGUUUUUUUGGAAAGGUUUUUUUGGAAAGUAUUAUGUUACGCCGUUCGGAUCUGCACUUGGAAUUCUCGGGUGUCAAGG` gave a log2 enrichment of -2.95.
For `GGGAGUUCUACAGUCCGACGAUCAGUCCUGUGCUACACAUCGUAUGUACCGAAUCGGUUUUUGGGUUUUUGGGUUUUUGGAAAGUAUUAUGUUACGCCGUUCGGAUCUGCACUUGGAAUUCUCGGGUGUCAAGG`, the log2 enrichment was -1.8.
`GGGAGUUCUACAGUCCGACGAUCACCAUGCAGGUGGGCAUCUUUGGGAAGUGGGGCAAGGGGGUGAUAGGGAGGGGGGUAACACUUUGGGAACAGGUGGUCCCAGGUCGUUUCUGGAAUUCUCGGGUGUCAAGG` gave a log2 enrichment of 0.605.
For `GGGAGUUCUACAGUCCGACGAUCUAACUUUAGAGGAGGAUCUGAUGGAUAUGGUAGUGGACGUGGAUUUGGGGAUGGCUAUAAUGGGUAUGGAGGAGGACCUGGAGGUGGCAAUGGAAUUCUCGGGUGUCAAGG`, the log2 enrichment was 0.653.
`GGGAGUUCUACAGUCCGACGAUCUCCUGUGCUACACAUCGUAUGUACCGAAUCAAAUUUUUAAACCCCCAAAUUUUUUUAAAAAAGUAUUAUGUUACGCCGUUCGGAUCUGCAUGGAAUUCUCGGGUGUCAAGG` has a log2 enrichment of 0.503.
With `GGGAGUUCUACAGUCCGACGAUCGCAGGAAGUAAAAACAAAUAAAAAUGCUUCGGAUAGUGGCAGGGGUGGGGGUUGCUAAGGAAAGGGUGGGAUGGGAGUGGGUAAAGAGUUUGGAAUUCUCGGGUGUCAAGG` the log2 enrichment was 1.3.

Sample 3
Target: RNA binding protein fox-1 homolog 2, RRM domain, GST-SBP tag (RBFOX2, Homo sapiens, UniProt O43251-10, residues 100-194)
Technique: RNA Bind-n-Seq
Molecule type: RNA
Matrix: in vitro
Concentration: 365 nM
Setting: natural RNA segment, single round, ends assumed
Baseline: no-protein control
Direction: higher = stronger binding
Construct (chain): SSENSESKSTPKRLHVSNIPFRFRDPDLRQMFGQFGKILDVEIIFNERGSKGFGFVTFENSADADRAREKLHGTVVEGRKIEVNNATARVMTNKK
`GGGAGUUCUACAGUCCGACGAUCCGAGGGCUCCAGGUGCUAUCUUAGGUGGACACAGCCCUGGGGGCUCCUUCCAGGAGGGGACCCUCAGCCCUGUGCCCCCCACCACUUCAGGCCACACCAGGUUCCCUCUGUGGAAUUCUCGGGUGCCAA`: “RBNS enrichment (R)” 0.159.
`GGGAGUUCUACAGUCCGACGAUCUCUUAGGGACUCUUGCUGCUAUGCUUGCCAGCAAAUGGCAAUCAAGGGACAAUUAGCCACUUGCCCCGACACAGGUCAGCAUCAGGGCCAGAUCCCUUGCACACAGCCCAUGGAAUUCUCGGGUGCCAA` — result for “RBNS enrichment (R)”: 0.645.
`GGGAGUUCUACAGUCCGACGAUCGUUUUGUGAAAUUUUUCAUAUUUUAAUUUCAAGCUUAUUUUGGAGAGAUAGGAAGGUCAUUUCCAUGUAUGCAUAAUAAUCCUGCAAAGUACAGGUACUUUGUCUAAGAAUGGAAUUCUCGGGUGCCAA` — result for “RBNS enrichment (R)”: 1.25.
For `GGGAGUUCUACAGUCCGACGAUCCCUUCAGGCGAUACUGAUGUAAACUAAAGCUUAAAAACCACCGUUUUACUGUGACUUCAUGAAGAAUAUAAUUGCAAUAUCACCUAAAUUUUUAUCCUGGCUGGGAUGGGUGGAAUUCUCGGGUGCCAA`, “RBNS enrichment (R)” read 0.495.
`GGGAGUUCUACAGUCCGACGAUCCUGGGCCAAGUCAGUUGGAGGCUGAGGCUGCAAGGCCAGGUGUGUAGCCCUUUUGAUCAAAUUGGUCUUCACCUGCUUGCCUCUGAGGCUCCAUCCUUCUACUUCAACCCUGGAAUUCUCGGGUGCCAA` — result for “RBNS enrichment (R)”: 0.301.
For `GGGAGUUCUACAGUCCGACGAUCGUUUUUGGGGUCCAUGGCCAAGUGGAGUUCCCCCAGAGGGGGAGGUGGGGUAAGUGCCUCCAGGAAGGCAGGCAGCCUGCCUUAGACUUGCAGCCCGGCUGUGGGAAUGAUGGAAUUCUCGGGUGCCAA`, “RBNS enrichment (R)” read 0.83.
For `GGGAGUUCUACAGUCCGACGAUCGAUGCUAUUGAAACAUACAAAGGUAGACCUUUUGACUUUAAACAGUUAAUAACGAAUGCUGUUUCAAACAUAACCAAUCUGAUCAUUUUUGGAGAACGAUUCACUUAUGAUGGAAUUCUCGGGUGCCAA`, “RBNS enrichment (R)” read 0.347.
`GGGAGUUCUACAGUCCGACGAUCGGAGACUCGAAUGAUACCAAGAUAAUACAGAUAUUAUUAAGAAUUUUUUUGUGUUGAGGUGAUGUAGAUAAAUGUAUUUAUAUGCCUAGUUGGAUAUUCAAUAUUAUGAAUGGAAUUCUCGGGUGCCAA`: “RBNS enrichment (R)” 0.494.

Sample 4
Target: Interferon regulatory factor 5, full length, phosphomimetic (IRF5, Homo sapiens, UniProt Q13568-2, residues 1-514, S451D/S453D/S456D/S462D)
Technique: protein-binding microarray
Molecule type: double-stranded DNA, one strand shown
Matrix: in vitro
Concentration: 940 nM top
Setting: 60-bp whole probe
Together with: salmon DNA 0.4 mg/ml
Baseline: random background probes
Direction: higher = stronger binding
Shared flanks, not repeated: GCCTAGCAC … GTCTTGATTCGCTTGACGCTGCTG
`GACGGACTACTTCTCCTGACGTGCTAG` — result for “fitted relative affinity”: -0.0654 z-score.
`GACGCTTTCAGTATCGAGACGTGCTAG`: “fitted relative affinity” 3.66 z-score.
Under “fitted relative affinity”, `TTAGGTTCCCTTTTCGTTTAGTGCTAG` is recorded as 1.29 z-score.
Under “fitted relative affinity”, `GACGATATCGGCTATCGAGACGTGCTA` is recorded as 0.0518 z-score.
For `TCAGCTCTAGGTTCTCTGAAGGTGCTA`, “fitted relative affinity” read -0.651 z-score.
Under “fitted relative affinity”, `GACGGTATCGGTATCGTGACGTGCTAG` is recorded as 7.6 z-score.
For `CTGAGGCTGCCGTGGCCATGGTGCTAG`, “fitted relative affinity” read -0.97 z-score.
Under “fitted relative affinity”, `TCAATTGGTTGAACATGACTGTGCTAG` is recorded as -0.458 z-score.
Under “fitted relative affinity”, `GACGATCTCAGTATGGAGACGTGCTAG` is recorded as 0.0873 z-score.
Under “fitted relative affinity”, `TGAGAACTGGGGTTTCGATTAGTGCTA` is recorded as 5.2 z-score.
Under “fitted relative affinity”, `TTAGAATTCGGGTATCGATTAGTGCTA` is recorded as 3.05 z-score.
For `GACGGTTTCGACTTTCCGGACGTGCTA`, “fitted relative affinity” read 8.35 z-score.
For `TCATGCCTATTTTTCACACTGTGCTAG`, “fitted relative affinity” read 0.734 z-score.
`GACGGACTGGGTCTCGGTACGTGCTAG` — result for “fitted relative affinity”: 0.769 z-score.
For `GAGGTTTTCTAATGTTTTTTAGTGCTA`, “fitted relative affinity” read 0.751 z-score.
`TTAGATTTCAGTATTGATTAGTGCTAG`: “fitted relative affinity” 1.01 z-score.
For `CATTGCCTATTTTTCACCTGGTGCTAG`, “fitted relative affinity” read 1.05 z-score.
For `TTAGAACTGAGTTTCTATTAGTGCTAG`, “fitted relative affinity” read 2.52 z-score.
`TTAGGTTCCCTTGTCCTTTAGTGCTAG` — result for “fitted relative affinity”: 0.349 z-score.

For quick reference, copied from above (sample 4):
For `TCATGCCTATTTTTCACACTGTGCTAG`, “fitted relative affinity” read 0.734 z-score.
`GACGGACTGGGTCTCGGTACGTGCTAG` — result for “fitted relative affinity”: 0.769 z-score.
For `GAGGTTTTCTAATGTTTTTTAGTGCTA`, “fitted relative affinity” read 0.751 z-score.
`TTAGATTTCAGTATTGATTAGTGCTAG`: “fitted relative affinity” 1.01 z-score.
For `CATTGCCTATTTTTCACCTGGTGCTAG`, “fitted relative affinity” read 1.05 z-score.
For `TTAGAACTGAGTTTCTATTAGTGCTAG`, “fitted relative affinity” read 2.52 z-score.
